Published values collected from several papers.
Numbered parts are unrelated; each lists some results of a single study.
Chain of UniProt Q02156 (whole entry, looked up): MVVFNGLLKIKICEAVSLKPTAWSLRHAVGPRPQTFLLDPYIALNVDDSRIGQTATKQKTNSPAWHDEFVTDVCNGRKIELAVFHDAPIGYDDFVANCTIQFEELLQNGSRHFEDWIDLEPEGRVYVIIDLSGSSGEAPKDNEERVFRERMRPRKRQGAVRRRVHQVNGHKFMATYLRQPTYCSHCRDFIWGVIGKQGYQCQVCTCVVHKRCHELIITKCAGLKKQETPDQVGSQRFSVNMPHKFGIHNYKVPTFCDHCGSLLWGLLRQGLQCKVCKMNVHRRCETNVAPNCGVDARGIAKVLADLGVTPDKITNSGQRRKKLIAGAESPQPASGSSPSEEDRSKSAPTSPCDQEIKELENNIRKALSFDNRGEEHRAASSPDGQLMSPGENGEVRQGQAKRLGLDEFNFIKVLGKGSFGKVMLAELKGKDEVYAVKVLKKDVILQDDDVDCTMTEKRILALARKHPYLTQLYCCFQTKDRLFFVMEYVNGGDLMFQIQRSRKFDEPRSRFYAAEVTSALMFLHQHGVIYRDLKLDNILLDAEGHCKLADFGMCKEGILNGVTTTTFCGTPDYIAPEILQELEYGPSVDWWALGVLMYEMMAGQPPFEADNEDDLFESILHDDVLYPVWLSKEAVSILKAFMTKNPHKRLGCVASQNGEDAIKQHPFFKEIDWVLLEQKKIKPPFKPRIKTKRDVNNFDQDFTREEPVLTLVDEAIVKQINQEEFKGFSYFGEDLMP
Chain of UniProt P43250 (whole entry, looked up): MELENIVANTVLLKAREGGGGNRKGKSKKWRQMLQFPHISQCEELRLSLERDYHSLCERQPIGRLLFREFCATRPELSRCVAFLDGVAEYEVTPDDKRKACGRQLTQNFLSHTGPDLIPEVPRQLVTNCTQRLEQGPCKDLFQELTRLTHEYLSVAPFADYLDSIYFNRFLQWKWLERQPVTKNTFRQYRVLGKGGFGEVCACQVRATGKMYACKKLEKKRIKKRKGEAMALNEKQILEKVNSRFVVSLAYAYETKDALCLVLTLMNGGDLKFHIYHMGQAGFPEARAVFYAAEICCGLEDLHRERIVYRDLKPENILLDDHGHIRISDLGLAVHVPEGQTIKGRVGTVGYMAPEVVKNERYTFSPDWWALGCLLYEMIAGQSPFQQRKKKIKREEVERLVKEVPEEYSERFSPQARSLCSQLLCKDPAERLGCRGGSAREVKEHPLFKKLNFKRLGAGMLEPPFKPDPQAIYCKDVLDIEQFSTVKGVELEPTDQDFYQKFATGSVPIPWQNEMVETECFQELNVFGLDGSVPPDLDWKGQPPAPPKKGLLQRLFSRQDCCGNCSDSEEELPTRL
Chain of UniProt O60285 (whole entry, looked up): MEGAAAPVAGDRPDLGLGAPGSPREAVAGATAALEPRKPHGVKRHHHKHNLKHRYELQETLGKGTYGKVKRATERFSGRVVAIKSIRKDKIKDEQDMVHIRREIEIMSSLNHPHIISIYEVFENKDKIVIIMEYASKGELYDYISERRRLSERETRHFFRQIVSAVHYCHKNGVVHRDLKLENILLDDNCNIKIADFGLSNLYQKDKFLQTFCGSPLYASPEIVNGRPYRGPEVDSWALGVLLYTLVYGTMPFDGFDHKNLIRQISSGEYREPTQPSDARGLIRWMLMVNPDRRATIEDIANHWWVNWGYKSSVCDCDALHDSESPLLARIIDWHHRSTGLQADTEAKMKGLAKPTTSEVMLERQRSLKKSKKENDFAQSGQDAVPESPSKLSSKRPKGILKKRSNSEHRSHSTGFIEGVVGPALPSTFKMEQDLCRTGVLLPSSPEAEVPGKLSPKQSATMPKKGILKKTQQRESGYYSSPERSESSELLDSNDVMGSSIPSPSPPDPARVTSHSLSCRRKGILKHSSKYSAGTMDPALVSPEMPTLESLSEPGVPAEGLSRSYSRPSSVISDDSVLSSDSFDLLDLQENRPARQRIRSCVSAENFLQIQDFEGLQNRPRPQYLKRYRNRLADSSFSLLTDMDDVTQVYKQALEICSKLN
Chain of UniProt Q9H2G2 (whole entry, looked up): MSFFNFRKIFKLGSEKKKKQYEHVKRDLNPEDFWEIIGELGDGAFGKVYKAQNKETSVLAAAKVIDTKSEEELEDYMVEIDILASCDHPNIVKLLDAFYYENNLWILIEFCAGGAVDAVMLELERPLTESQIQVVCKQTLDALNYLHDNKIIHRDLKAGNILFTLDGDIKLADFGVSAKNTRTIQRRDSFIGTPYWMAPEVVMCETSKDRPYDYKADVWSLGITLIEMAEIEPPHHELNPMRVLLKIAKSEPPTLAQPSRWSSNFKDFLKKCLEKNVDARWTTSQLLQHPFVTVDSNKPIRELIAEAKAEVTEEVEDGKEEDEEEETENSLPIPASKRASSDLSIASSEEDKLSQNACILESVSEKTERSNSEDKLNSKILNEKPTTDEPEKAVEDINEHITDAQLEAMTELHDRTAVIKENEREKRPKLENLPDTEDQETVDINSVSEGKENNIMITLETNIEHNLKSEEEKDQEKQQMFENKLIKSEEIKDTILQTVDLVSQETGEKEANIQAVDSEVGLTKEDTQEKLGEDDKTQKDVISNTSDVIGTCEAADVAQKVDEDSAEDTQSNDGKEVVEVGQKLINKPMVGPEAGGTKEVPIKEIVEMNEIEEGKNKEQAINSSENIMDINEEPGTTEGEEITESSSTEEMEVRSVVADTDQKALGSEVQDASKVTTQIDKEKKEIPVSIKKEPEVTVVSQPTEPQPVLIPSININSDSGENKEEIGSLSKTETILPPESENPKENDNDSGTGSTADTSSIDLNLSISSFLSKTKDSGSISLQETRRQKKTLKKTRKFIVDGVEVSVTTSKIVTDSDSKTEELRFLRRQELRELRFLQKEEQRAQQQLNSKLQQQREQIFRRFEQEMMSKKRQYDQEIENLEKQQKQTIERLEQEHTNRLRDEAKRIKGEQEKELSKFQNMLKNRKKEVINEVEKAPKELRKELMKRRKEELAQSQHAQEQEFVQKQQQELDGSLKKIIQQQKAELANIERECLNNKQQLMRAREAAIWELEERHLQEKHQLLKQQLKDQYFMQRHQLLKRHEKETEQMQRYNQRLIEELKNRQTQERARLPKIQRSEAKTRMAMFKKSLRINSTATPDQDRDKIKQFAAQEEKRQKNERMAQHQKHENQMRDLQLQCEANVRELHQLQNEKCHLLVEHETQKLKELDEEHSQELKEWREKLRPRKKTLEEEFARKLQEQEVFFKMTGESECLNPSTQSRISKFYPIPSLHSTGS
Chain of UniProt Q15418 (whole entry, looked up): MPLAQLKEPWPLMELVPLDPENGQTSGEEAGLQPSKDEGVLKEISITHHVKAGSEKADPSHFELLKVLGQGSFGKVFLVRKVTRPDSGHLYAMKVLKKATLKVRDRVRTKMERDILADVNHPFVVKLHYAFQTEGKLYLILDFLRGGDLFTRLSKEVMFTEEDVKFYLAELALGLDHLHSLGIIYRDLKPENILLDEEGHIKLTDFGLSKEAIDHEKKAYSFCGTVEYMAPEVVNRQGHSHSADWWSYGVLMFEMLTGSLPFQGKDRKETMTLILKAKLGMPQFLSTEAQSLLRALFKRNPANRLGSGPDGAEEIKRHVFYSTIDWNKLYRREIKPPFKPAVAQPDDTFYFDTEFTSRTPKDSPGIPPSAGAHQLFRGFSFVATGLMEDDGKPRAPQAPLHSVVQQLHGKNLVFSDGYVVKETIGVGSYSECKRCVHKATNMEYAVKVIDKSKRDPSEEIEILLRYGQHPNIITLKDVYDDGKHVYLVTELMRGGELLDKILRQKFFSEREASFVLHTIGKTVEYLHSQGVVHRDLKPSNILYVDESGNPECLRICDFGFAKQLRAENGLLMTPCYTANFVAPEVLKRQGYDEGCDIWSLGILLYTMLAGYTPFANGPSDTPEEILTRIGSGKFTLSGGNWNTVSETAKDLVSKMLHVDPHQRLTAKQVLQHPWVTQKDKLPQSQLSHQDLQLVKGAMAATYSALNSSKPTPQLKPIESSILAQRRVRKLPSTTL
Chain of UniProt P10721 (whole entry, looked up): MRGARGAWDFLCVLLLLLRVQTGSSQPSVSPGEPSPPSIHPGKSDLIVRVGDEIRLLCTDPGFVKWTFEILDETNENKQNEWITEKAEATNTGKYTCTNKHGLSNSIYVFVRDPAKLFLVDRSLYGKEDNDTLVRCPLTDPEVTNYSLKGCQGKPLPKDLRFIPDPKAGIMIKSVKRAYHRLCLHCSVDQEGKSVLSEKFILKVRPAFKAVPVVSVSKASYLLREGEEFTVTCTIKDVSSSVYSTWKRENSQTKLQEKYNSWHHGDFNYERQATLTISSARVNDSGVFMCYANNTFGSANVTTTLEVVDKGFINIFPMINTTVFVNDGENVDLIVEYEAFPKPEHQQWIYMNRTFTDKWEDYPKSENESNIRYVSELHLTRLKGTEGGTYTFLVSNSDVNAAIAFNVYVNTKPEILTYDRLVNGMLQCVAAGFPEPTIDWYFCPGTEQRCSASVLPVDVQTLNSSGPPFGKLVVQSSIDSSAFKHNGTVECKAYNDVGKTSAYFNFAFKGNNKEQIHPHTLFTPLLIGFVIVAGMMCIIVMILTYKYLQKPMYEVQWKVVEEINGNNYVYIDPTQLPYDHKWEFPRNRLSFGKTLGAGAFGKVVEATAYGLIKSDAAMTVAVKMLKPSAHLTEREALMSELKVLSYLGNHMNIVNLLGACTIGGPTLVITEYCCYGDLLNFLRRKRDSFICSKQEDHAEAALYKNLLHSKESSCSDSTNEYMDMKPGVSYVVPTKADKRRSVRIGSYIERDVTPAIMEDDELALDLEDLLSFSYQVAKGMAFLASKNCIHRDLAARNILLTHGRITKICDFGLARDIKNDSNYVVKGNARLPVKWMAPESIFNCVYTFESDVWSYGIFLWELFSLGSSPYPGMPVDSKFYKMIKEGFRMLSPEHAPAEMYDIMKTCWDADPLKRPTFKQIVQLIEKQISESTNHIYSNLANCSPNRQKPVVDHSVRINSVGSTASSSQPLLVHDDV

Study 1
SMILES: COc1ccc2c(O[C@@H]3C[C@H]4C(=O)N[C@]5(C(=O)O)CC5/C=C\CCCCC[C@H](NC(=O)OC5CCCC5)C(=O)N4C3)cc(-c3csc(NC(=O)C(C)C)n3)nc2c1C (stereo partly drawn)
Tested at: 1 µM
Measurement: remaining binding
EPHA4 (Homo sapiens, UniProt P54764); cell-free assay, competition with immobilised ligand: 100%
ULK2 (Homo sapiens, UniProt Q8IYT8); cell-free assay, competition with immobilised ligand: 95%
SLK (Homo sapiens, UniProt Q9H2G2); cell-free assay, competition with immobilised ligand: 100%
PRKAA1 (Homo sapiens, UniProt Q13131); cell-free assay, competition with immobilised ligand: 100%
NEK2 (Homo sapiens, UniProt P51955); cell-free assay, competition with immobilised ligand: 94%
CDKL2 (Homo sapiens, UniProt Q92772); cell-free assay, competition with immobilised ligand: 89%
CDC42BPG (Homo sapiens, UniProt Q6DT37); competition binding: 100%
Mast/stem cell growth factor receptor Kit, autoinhibited (KIT, Homo sapiens, UniProt P10721); cell-free assay, competition with immobilised ligand: 72%
FGR (Homo sapiens, UniProt P09769); cell-free assay, competition with immobilised ligand: 100%
Tyrosine-protein kinase ABL1, phosphorylated (ABL1, Homo sapiens, UniProt P00519, H396P); cell-free assay, competition with immobilised ligand: 91%
HIPK4 (Homo sapiens, UniProt Q8NE63); cell-free assay, competition with immobilised ligand: 99%
CHEK2 (Homo sapiens, UniProt O96017); cell-free assay, competition with immobilised ligand: 94%
PIK3CA (Homo sapiens, UniProt P42336, M1043I); cell-free assay, competition with immobilised ligand: 88%
EIF2AK1 (Homo sapiens, UniProt Q9BQI3); cell-free assay, competition with immobilised ligand: 96%
TLK2 (Homo sapiens, UniProt Q86UE8); cell-free assay, competition with immobilised ligand: 100%

Study 2
Structure (SMILES): CC(C)n1cnc(-c2ccc(F)cc2)c1-c1ncc(C(=O)Nc2ccc(N3CCN(C)CC3)cc2)[nH]1
Technique: Phase 2a trial
Host: idiopathic pulmonary fibrosis patients
Measurement: patients with adverse events
refers to: respiratory tract infection; 30 mg once daily, grade 2 maximum intensity: 0%
refers to: eye disorders (SOC); dose not given, grade 5 maximum intensity, all arms: 0%
refers to: neutrophil count increased; 60 mg once daily, grade 4 maximum intensity: 0%
refers to: bile acids increased; 30 mg once daily, grade 3 maximum intensity: 0%
refers to: tri-iodothyronine increased; 60 mg once daily, grade 5 maximum intensity: 0%
refers to: urinary tract infection; dose not given, grade 5 maximum intensity, all arms: 0%
refers to: tri-iodothyronine increased; 30 mg once daily, grade 2 maximum intensity: 0%
refers to: eye disorders (SOC); dose not given, grade 4 maximum intensity, all arms: 0%
refers to: urinary tract infection; 30 mg once daily, grade 4 maximum intensity: 0%
refers to: oral herpes; oral, dose not given, grade 3 maximum intensity, all arms: 0%
refers to: oral herpes; oral, 30 mg once daily, grade 2 maximum intensity: 0%
refers to: reticulocyte count increased; 60 mg once daily, grade 4 maximum intensity: 0%
refers to: vision blurred; dose not given, grade 4 maximum intensity, all arms: 0%
refers to: gamma-glutamyltransferase increased; 30 mg once daily, grade 4 maximum intensity: 0%
refers to: chest discomfort; 30 mg once daily, grade 3 maximum intensity: 0%

Study 3
Cell line: mouse MPNST tumor cells
Technique: high-content immunofluorescence imaging
Refers to: nuclear SOX9
Tested at: 10 µM
Time: 12 h
Setting: mean of 2 replicates
Baseline: DMSO control
Direction: higher = more nuclear SOX9
Measurement: nuclear SOX9 intensity
COc1cc(N2CCC(O)CC2)ccc1Nc1cc(Nc2ccccc2S(=O)(=O)C(C)C)c2cc[nH]c2n1: 109 % of DMSO
COC(=O)Nc1nc2cc(Sc3ccccc3)ccc2[nH]1: 172 % of DMSO
CCC(CC=Cc1ccccc1)(c1ccccc1)N(C)CC1CC1 (single isomer, unassigned; (+)): 106 % of DMSO
COc1c(C)c2c(c(O)c1C/C=C(\C)CCC(=O)O)C(=O)OC2: 94.6 % of DMSO
COc1cc(N2CCOCC2)ccc1Nc1ncc(Cl)c(Nc2ccccc2NS(C)(=O)=O)n1: 115 % of DMSO
Nc1ncnc2c1c(COc1cccc(Cl)c1)nn2C1CCOCC1: 94.2 % of DMSO
Cc1cc(CS(=O)(=O)c2ccccc2)cc(OCc2ccc(CN3CCC[C@@H]3CO)cc2)c1: 215 % of DMSO
CN1CCCN=C1/C=C/c1cccs1: 95 % of DMSO
CC(=O)Oc1cc(C(F)(F)F)ccc1C(=O)O: 91.9 % of DMSO
CC(C)C(=O)SCCCCC[C@H](NC(=O)OC(C)(C)C)C(=O)NC12CC3CC(CC(C3)C1)C2: 116 % of DMSO
CC(C)(C)c1cc(C(C)(C)C)nc(N2CCn3c(nnc3-c3ccc(OC(F)(F)F)cc3)C2)n1: 120 % of DMSO
Cc1cc(C(=O)Nc2cccc(C(=O)Nc3cccc(C(F)(F)F)c3)c2)on1: 99.4 % of DMSO

Study 4
SMILES: O=C1Cc2c([nH]c3ccc(Br)cc23)-c2ccccc2N1
Read-out: enzyme activity
Mode: inhibitor
Tested at: 0.5 µM
Baseline: control
Measurement: remaining activity
SGK1 (Homo sapiens, UniProt O00141): 107%
RPS6KA1 (Homo sapiens, UniProt Q15418): 90.8%
EPHB2 (Homo sapiens, UniProt P29323): 95.5%
RPS6KB1 (Homo sapiens, UniProt P23443): 103%
FGFR4 (Homo sapiens, UniProt P22455): 113%
PAK2 (Homo sapiens, UniProt Q13177): 95.5%
PIM2 (Homo sapiens, UniProt Q9P1W9): 104%
NUAK1 (Homo sapiens, UniProt O60285): 14.6%
GRK2 (Homo sapiens, UniProt P25098): 103%
GRK6 (Homo sapiens, UniProt P43250): 105%
EPHA7 (Homo sapiens, UniProt Q15375): 101%
CSK (Homo sapiens, UniProt P41240): 88%
Aurora kinase C (AURKC, Homo sapiens, UniProt Q9UQB9): 90.9%
GSK3A (Homo sapiens, UniProt P49840): 5.87%
BMX (Homo sapiens, UniProt P51813): 99.6%
FLT3 (Homo sapiens, UniProt P36888): 47.7%
CSF1R (Homo sapiens, UniProt P07333): 92.6%
PRKCE (Homo sapiens, UniProt Q02156): 96.9%
PRKCG (Homo sapiens, UniProt P05129): 93.8%
SRPK3 (Homo sapiens, UniProt Q9UPE1): 100%
MYLK (Homo sapiens, UniProt Q15746): 96.3%
